Assay results of several laboratories.
Parts stem from different laboratories: compare values within a part only. Positions count from the first letter of the parent shown.

Sample 1
Target: PABPC1L2, full length, GST fusion (mouse, UniProt A0ABA7IW68)
Method: RNAcompete
Form: RNA
Medium: in vitro
Tested at: 20 nM
Setting: 7-mer, probes averaged, single round
Reference: mean of 7-mers
Direction: higher = stronger binding
Residues (chain): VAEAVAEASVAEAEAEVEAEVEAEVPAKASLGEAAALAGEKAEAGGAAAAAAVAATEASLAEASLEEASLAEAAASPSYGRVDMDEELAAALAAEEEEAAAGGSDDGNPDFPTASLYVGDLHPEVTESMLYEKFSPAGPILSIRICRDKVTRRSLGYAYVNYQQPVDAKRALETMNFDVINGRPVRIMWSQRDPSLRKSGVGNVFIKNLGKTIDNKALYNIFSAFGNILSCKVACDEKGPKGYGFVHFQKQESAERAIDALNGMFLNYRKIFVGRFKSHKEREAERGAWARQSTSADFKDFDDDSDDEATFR
| Strand | 7-mer Z-score |
| --- | --- |
| UUGUCCG | -0.396 |
| UCUCCUG | -0.494 |
| CGCGUAU | -0.231 |
| AGCGUAU | -0.164 |
| UUUGGGC | -0.251 |
| UAACUGC | -0.28 |
| CGCCCUG | -0.284 |
| UUCUCGC | -0.443 |
| CUUCUGA | -0.369 |
| AGACUGA | -0.162 |
| GUGUAGU | -0.142 |
| UAGCGUA | -0.0591 |
| GUGGCCC | -0.0645 |
| UAACCUU | -0.331 |
| CUUCGAC | -0.32 |
| GAAGGUC | -0.162 |

Sample 2
Target: CCNA1, cyclin fold, Cln2 fusion (human)
Method: yeast growth competition, sequencing
Medium: yeast
Setting: weak parent motif
Reference: not given
Direction: higher = stronger binding
Parent: E2F1 docking peptide (human); PPVKRRLDLETDH; partner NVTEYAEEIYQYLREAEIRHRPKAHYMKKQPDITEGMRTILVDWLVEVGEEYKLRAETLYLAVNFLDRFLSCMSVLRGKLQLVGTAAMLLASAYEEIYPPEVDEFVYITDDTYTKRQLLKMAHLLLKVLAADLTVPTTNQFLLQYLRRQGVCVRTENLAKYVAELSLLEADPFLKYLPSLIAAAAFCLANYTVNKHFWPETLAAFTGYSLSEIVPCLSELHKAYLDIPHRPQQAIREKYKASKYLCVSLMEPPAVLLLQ
| Variant | normalised enrichment score |
| --- | --- |
| PPVVRRLDLETDH [K4V] | 0.572 |
| PPVKRRCDLETDH [L7C] | 0.297 |
| YPVKRRLDLETDH [P1Y] | 0.888 |
| PDVKRRLDLETDH [P2D] | 0.554 |
| PPVKARLDLETDH [R5A] | 0.356 |
| PPVKRRLDLITDH [E10I] | 0.66 |
| PPVKRRLGLETDH [D8G] | 0.54 |
| PPMKRRLDLETDH [V3M] | 0.191 |
| PPVKRRLDLPTDH [E10P] | 0.316 |
| PPVKRRLDLETDE [H13E] | 0.669 |
| PPVKRFLDLETDH [R6F] | 0.252 |
| PPVKRRLWLETDH [D8W] | 0.429 |
| PAVKRRLDLETDH [P2A] | 0.433 |
| PPVKSRLDLETDH [R5S] | -0.045 |
| PPVKRRLDLETDN [H13N] | 0.541 |
| PPVKRRLSLETDH [D8S] | 0.573 |
| PPVNRRLDLETDH [K4N] | 0.257 |
| HPVKRRLDLETDH [P1H] | 0.664 |
| PPVQRRLDLETDH [K4Q] | 0.427 |
| PPNKRRLDLETDH [V3N] | 0.402 |

Sample 3
Target: Histone acetyltransferase KAT6A, winged helix 1, GST fusion (KAT6A, Homo sapiens, UniProt Q92794, residues 1-85)
Method: protein binding microarray
Form: double-stranded DNA, one strand shown
Medium: in vitro
Tested at: not given
Setting: 8-mer, flanks averaged, mean of 2 arrays, mostly near background
Reference: not given
Direction: higher = stronger binding
Construct (chain): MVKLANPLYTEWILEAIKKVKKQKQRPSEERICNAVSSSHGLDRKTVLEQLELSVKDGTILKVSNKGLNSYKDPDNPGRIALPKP
| Strand | E-score |
| --- | --- |
| ACAAACAA | -0.183 |
| AAGTCACG | 0.0319 |
| ATTATTAA | -0.0148 |
| AGCATAAC | -0.0854 |
| ACAGGGGA | -0.218 |
| GGCGAAGA | 0.0537 |
| CGACAGGC | 0.0532 |
| CGTCCTCC | 0.178 |
| CACAGGGC | -0.0355 |
| AGGTGTCA | -0.168 |
| AACAATAT | -0.0477 |
| ACTCTCTA | -0.221 |
| GAGCCACC | -0.116 |
| CAGATGAC | -0.0152 |
| AGTGGCGC | 0.192 |
| ACCCTAAA | -0.129 |
| ACTGTCCT | -0.167 |
| AACGCGGG | 0.372 |
| AGTCCCTA | -0.0681 |
| GTCATTTA | -0.171 |
| CTGCATAC | -0.114 |
| GAAGTCGA | -0.23 |
| CGTCGGAC | 0.386 |
| CATGCGGA | 0.171 |

Sample 4
Target: Sal-like protein 4, full length isoform A (SALL4, Homo sapiens, UniProt Q9UJQ4, residues 1-1053)
Chain of UniProt Q9UJQ4 (whole entry, looked up): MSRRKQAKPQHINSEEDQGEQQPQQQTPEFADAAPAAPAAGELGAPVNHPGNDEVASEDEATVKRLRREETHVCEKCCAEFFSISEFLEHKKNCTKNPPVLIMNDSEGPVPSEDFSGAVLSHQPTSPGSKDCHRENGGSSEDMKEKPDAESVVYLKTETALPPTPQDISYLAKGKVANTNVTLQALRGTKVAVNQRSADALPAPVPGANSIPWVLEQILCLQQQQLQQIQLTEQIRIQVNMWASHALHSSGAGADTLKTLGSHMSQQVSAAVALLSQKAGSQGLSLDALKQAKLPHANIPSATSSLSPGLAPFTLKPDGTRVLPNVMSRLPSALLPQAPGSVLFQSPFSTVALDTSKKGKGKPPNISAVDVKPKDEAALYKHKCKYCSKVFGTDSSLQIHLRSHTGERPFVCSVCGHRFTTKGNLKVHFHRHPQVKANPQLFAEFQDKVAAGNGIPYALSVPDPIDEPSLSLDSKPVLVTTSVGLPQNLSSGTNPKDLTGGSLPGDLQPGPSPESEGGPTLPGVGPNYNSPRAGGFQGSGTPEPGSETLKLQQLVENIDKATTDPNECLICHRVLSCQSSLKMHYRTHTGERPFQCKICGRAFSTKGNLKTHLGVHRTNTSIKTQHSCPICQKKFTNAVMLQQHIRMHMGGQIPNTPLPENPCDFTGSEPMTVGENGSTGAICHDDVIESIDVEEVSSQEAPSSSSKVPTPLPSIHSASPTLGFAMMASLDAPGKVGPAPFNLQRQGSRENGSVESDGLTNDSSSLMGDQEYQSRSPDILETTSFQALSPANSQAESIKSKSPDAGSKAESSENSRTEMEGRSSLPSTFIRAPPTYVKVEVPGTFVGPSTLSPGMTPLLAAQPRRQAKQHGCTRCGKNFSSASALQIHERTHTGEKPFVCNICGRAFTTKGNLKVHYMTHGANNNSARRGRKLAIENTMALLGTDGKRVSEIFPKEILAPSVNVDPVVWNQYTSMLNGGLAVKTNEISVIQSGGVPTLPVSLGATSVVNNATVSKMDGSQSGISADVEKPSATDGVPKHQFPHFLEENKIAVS
Method: universal PBM
Form: double-stranded DNA, one strand shown
Medium: in vitro
Tested at: 600 nM
Setting: 8-mer, flanks averaged, mean of replicates
Direction: higher = stronger binding
| Strand | E-score |
| --- | --- |
| AATTGCTC | -0.0381 |
| GCAACTAA | 0.0359 |
| GCAGGTCA | -0.118 |
| GGTTGGAA | -0.159 |
| GAGCTGCC | -0.332 |
| AGTGCAAA | 0.17 |
| GTAAGATA | 0.301 |
| AATCCCCA | -0.156 |
| CCAACTGA | -0.03 |
| CCGAGGCC | -0.386 |
| GATCACAA | 0.169 |
| CTGTATTA | 0.277 |
| CAGACTAG | -0.181 |
| ATAGCTTG | 0.129 |
| TCCGCGGA | -0.339 |
| ACGCTGAG | -0.154 |
| GACTCGGC | -0.322 |
| ACTAATCG | 0.0834 |
| ACGTGGAT | 0.0536 |
| TCCTCACA | 0.053 |
| AAAGTAAG | 0.167 |
| CTAAAAGA | 0.132 |
| TCACAGGA | 0.16 |
| ACGTAAAA | 0.254 |
| CCCAGCCC | -0.342 |

Sample 5
Target: RNA binding protein fox-1 homolog 2, RRM domain, GST-SBP tag (RBFOX2, Homo sapiens, UniProt O43251-10, residues 100-194)
Method: RNA Bind-n-Seq
Form: RNA
Medium: in vitro
Tested at: 365 nM
Setting: natural RNA segment, single round, ends assumed
Reference: no-protein control
Direction: higher = stronger binding
All sequences stand within: GGGAGUUCUACAGUCCGACGAUC … UGGAAUUCUCGGGUGCCAA
Target sequence (chain): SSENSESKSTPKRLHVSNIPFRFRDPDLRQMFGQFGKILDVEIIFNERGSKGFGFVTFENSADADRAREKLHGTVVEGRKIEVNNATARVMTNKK
| Strand | RBNS enrichment (R) |
| --- | --- |
| ACUAGUCAGGCAUUAUGCCUGAUGCAUACGCCUCCCGUGCACCCCUAUCUAGCCUUCAGAUGUCCUCCACUGCAGGUCACCCCAGGAGAUAGCAUCAAUAAUAUAGUCUC | 2.32 |
| UGCUUUGCCCAGCCUUGCUUUGGACCAGCUCUGCUACGUCUCCAGGGAAACCAAGCUUGGGCCUUGCAGUGGAAAUGGAUCCGAGGGCCCAGGGGACCCUGGUGGAUUUA | 0.926 |
| UCAGCUGGUGACACAGCUGCACUGGCAAGAAAAUGGACCCACCUUUUCCAGCACACCUUACCGCUACCAGGCCUGCAGGUUUGGGCAGGUUCCAGACCAGCCUGCUGGCC | 0.396 |
| AAAGAGAGAAUCAUCAUCAAGGCACCGUAGGUAACUCAGUGGCUGUGACCAGCUCGACUGGCGGCCACUGGCUGUUCCCAUGAGUUCAGCUGUGACGUUAGCUUCAGUGG | 0.257 |
| UCUCACCUGUUUCCCCACAAAGGGAAUUUCUCACUCUGGUUGGAAGCACAAACACUGAAAUGUCUACGUUUCAUUUUGGCAGUAGGGUGUGAAGCUGGGAGCAGAUCAUG | 0.299 |
| CCAUUCUUCUCAAGCAAGGAUUGCCAGCGCGCGCUGACACAGUGAUGGGCUGCCCAGGGCUGGAGGGGACGCUGUUCCUCCCGCCGCCACUGCCCAACCUUUCCUGAUAA | 0.255 |
| UGAAUGUCUCAAUUUAAAACUUGAAGCUCUUUAGACCAAUAGACUGGUGAGAGGAGAAAGGAGCUUAUCCCCCAGACCCUGCUUUAUACCAUUCACAUCCCAGGGCUGUG | 0.478 |
| UGGAAAUUCCUUGCCCCACAGUUGUGUUCAUGCUGAAUCCACCUCGGAGCAUGGUGUUUUCAUUCCCCCUUCCUAGUGAACCACAGGUUUUAGCAUUGUCUUGUUCUGUC | 0.35 |
| GAGCGAUUCCAUAUCUCCACUCAGACCCUGUGGACUACAGUGUUCCGCUGUGGUGGCUGCCAAGAUGCCUUCUUAAACUUAUGCAAGGAAACCAAACCCUCCCACAGUUC | 0.276 |
| CUGUCCAUCCAGCAUCUUAAUCACUUUAAAACUGUGAUUGUUAUUUGCAACUCUGUUCUUUGGAAAGAAUAAAAGCAUUUUUUUUCACUUGCUAACAUGCUCACAAAUGU | 0.576 |
| AAAUUUCAACAAAUUGUCUUUGAGUCAGAAAAGUUAGAUAAUUCUUCAACUGUUUGAAAUAAUGCUCUCUGGGAGGCCAACAUUCCAAGAAUGUAUGAAGAACUGAAACC | 0.385 |
| GCGCUACUUCUUAAGUACUUAAGUGACAUUUAGAUAAUUUAUAGUAAAACUGAAAUUAUUAUUAGCCAAUGCAUUGGUGCAUAGAAUUUACUAGGGCUACUUCUGGAAGC | 0.325 |

Further values, each from its own experiment
| Molecule | target | assay | system | conditions | how to read | endpoint | value |
| --- | --- | --- | --- | --- | --- | --- | --- |
| PhoQ, residues 284 288 289 292 302 303 SSTLSG | PhoP, residues 12 14 15 18 19 SYFRT (Escherichia coli, UniProt P23836) | Sort-seq, measured: YFP reporter | E. coli | PhoQ-PhoP variant library, with: 10 µM Mg2+ | reference: high Mg2+ state, higher = stronger signaling | fold induction | 9.95 |

Some of these lines once more (sample 5):
| Strand | RBNS enrichment (R) |
| --- | --- |
| UCAGCUGGUGACACAGCUGCACUGGCAAGAAAAUGGACCCACCUUUUCCAGCACACCUUACCGCUACCAGGCCUGCAGGUUUGGGCAGGUUCCAGACCAGCCUGCUGGCC | 0.396 |
| AAAGAGAGAAUCAUCAUCAAGGCACCGUAGGUAACUCAGUGGCUGUGACCAGCUCGACUGGCGGCCACUGGCUGUUCCCAUGAGUUCAGCUGUGACGUUAGCUUCAGUGG | 0.257 |
| UCUCACCUGUUUCCCCACAAAGGGAAUUUCUCACUCUGGUUGGAAGCACAAACACUGAAAUGUCUACGUUUCAUUUUGGCAGUAGGGUGUGAAGCUGGGAGCAGAUCAUG | 0.299 |
| CCAUUCUUCUCAAGCAAGGAUUGCCAGCGCGCGCUGACACAGUGAUGGGCUGCCCAGGGCUGGAGGGGACGCUGUUCCUCCCGCCGCCACUGCCCAACCUUUCCUGAUAA | 0.255 |
| UGAAUGUCUCAAUUUAAAACUUGAAGCUCUUUAGACCAAUAGACUGGUGAGAGGAGAAAGGAGCUUAUCCCCCAGACCCUGCUUUAUACCAUUCACAUCCCAGGGCUGUG | 0.478 |
| UGGAAAUUCCUUGCCCCACAGUUGUGUUCAUGCUGAAUCCACCUCGGAGCAUGGUGUUUUCAUUCCCCCUUCCUAGUGAACCACAGGUUUUAGCAUUGUCUUGUUCUGUC | 0.35 |
| GAGCGAUUCCAUAUCUCCACUCAGACCCUGUGGACUACAGUGUUCCGCUGUGGUGGCUGCCAAGAUGCCUUCUUAAACUUAUGCAAGGAAACCAAACCCUCCCACAGUUC | 0.276 |
| CUGUCCAUCCAGCAUCUUAAUCACUUUAAAACUGUGAUUGUUAUUUGCAACUCUGUUCUUUGGAAAGAAUAAAAGCAUUUUUUUUCACUUGCUAACAUGCUCACAAAUGU | 0.576 |
| AAAUUUCAACAAAUUGUCUUUGAGUCAGAAAAGUUAGAUAAUUCUUCAACUGUUUGAAAUAAUGCUCUCUGGGAGGCCAACAUUCCAAGAAUGUAUGAAGAACUGAAACC | 0.385 |
| GCGCUACUUCUUAAGUACUUAAGUGACAUUUAGAUAAUUUAUAGUAAAACUGAAAUUAUUAUUAGCCAAUGCAUUGGUGCAUAGAAUUUACUAGGGCUACUUCUGGAAGC | 0.325 |
